Results gathered from unrelated publications.
Compare with care: the assays were run in different laboratories. Values joined by “and” are separate records of one study, mostly repeats; a detail may differ.
Organism: Escherichia coli

Compound | test | test system | conditions | MIC
N#CC1COC(=O)N1/N=C/c1ccc([N+](=O)[O-])o1 (stereo not shown) | microbial growth, broth dilution | ATCC25922 | 18 h | 12.5 µg/mL
CCCCCCCCCCCCCCC(=O)N[C@@H](CCCCN)C(=O)N[C@@H](CCCCN)C(=O)N[C@@H](CCCCN)C(=O)N[C@@H](CCCCN)C(N)=O | broth microdilution | K12, water pH 7 | 18 h, 37 °C | 16 µg/mL
CCCCCCSCC1OC(OC2C(N)CC(N)C(OC3OC(CN)C(O)CC3N)C2O)C(O)C(N)C1O (stereo not shown) | – | BL21(DE3) AAC(3)-IV | – | > 150 µg/mL
CCCCCCCCCCCCCCCC(=O)NCCCC[C@H](N)C(=O)N[C@@H](CCCCN)C(=O)N[C@@H](CCCCN)C(=O)N[C@@H](CCCCN)C(=O)N[C@@H](CCCCN)C(=O)N[C@@H](CCCCN)C(N)=O | broth microdilution | K12, water pH 7 | 18 h, 37 °C | 16 µg/mL
CCCCCCCCCCCC[S+]([O-])CC1OC(OC2C(N)CC(N)C(OC3OC(CN)C(O)CC3N)C2O)C(O)C(N)C1O (mixture of isomers) | – | BL21(DE3) AAC(6')/APH(2'') | – | > 150 µg/mL
CC[C@H](C)[C@H](NC(=O)[C@H](CCCN)NC(=O)[C@H](CC(N)=O)NC(=O)[C@H](Cc1c[nH]c2ccccc12)NC(=O)[C@H](Cc1ccccc1)NC(=O)[C@H](CCCN)NC(=O)[C@H](CCCCNC(=N)N)NC(=O)[C@H](CC(C)C)NC(=O)[C@H](Cc1c[nH]c2ccccc12)NC(=O)[C@H](CCCN)NC(=O)[C@H](CCCCNC(=N)N)NC(=O)[C@H](CC(C)C)NC(=O)CNC(C)=O)C(=O)N[C@@H](CCCN)C(=O)N[C@@H](CCCCNC(=N)N)C(N)=O | broth microdilution | ATCC 25922 | – | 3.12 µM
CC[C@H](C)[C@H](NC(=O)[C@H](CC(C)C)NC(=O)CCNC(=O)[C@H](CO)NC(=O)[C@H](CCCNC(=N)N)NC(=O)[C@@H](N)CO)C(=O)N[C@H](C(=O)N[C@@H](Cc1c[nH]cn1)C(=O)N[C@@H](CCC(N)=O)C(=O)N[C@@H](CCCNC(=N)N)C(=O)N[C@@H](CC(C)C)C(=O)N[C@@H](Cc1ccccc1)C(N)=O)C(C)C | broth microdilution | Mueller Hinton broth | – | > 400 µg/mL
CCc1ccc([C@@H]2C[C@H](C(F)(F)F)n3ncc(C(=O)NCc4ccc(OC)cc4)c3N2)cc1 | broth microdilution | 3 | – | > 64 µM
CC[C@@H](C)[C@@H](NC(=O)[C@@H](C)NC(=O)[C@@H](CCCCN)NC(=O)[C@@H](CC(C)C)NC(=O)[C@@H](C)NC(=O)[C@H](NC(=O)[C@@H](Cc1c[nH]cn1)NC(=O)[C@@H](CC(C)C)NC(=O)[C@H](NC(=O)[C@H](NC(=O)[C@@H](CCCCN)NC(=O)[C@@H](CCCCN)NC(=O)[C@@H](C)NC(=O)[C@@H](CO)NC(=O)[C@@H](CCCCN)NC(=O)[C@@H](Cc1ccccc1)NC(=O)[C@H](NC(=O)[C@@H](CCCCN)NC(=O)[C@@H](CC(C)C)NC(=O)[C@@H](Cc1ccccc1)NC(=O)[C@@H](CO)NC(=O)[C@@H](CCCCN)NC(=O)[C@@H](Cc1c[nH]c2ccccc12)NC(=O)[C@@H](CCCCN)NC(C)=O)[C@H](C)O)[C@H](C)O)C(C)C)[C@H](C)O)C(=O)N[C@H](CO)C(=O)N[C@H](CO)C(N)=O | – | UB1005 | 24 h, 37 °C | 4 µg/mL
CCO[C@H]1[C@H](O)[C@@H](N)[C@@H](O[C@H]2[C@H](O[C@@H]3O[C@H](CO)[C@@H](O[C@H]4O[C@@H](CN)[C@@H](O)[C@H](O)[C@H]4N)[C@H]3O)[C@@H](O)[C@H](N)C[C@@H]2N)O[C@@H]1CO | broth microdilution | clinical isolate AG 003 | – | 32 µg/mL
CCCCCCCCCCCCCCCCCCCCCCSCC1OC(OC2C(N)CC(N)C(OC3OC(CN)C(O)CC3N)C2O)C(O)C(N)C1O (stereo not shown) | – | MC1061 | – | > 150 µg/mL
C[C@@](O)(C(F)F)[C@H](NC(=O)c1ccc(C#CC#CC2CC2)cc1)C(=O)NO | – | NDM-1 ATCC BAA-2471 | – | 0.01 µg/mL
CC[C@H](C)[C@H](NC(=O)[C@@H](Cc1ccccc1)NC)C(=O)OC[C@H](N)C(=O)N[C@H](CCC(N)=O)C(=O)N[C@@H](C(=O)N[C@H](C(=O)OC[C@H](N)C(=O)N[C@H]1C(=O)N[C@@H](C)C(=O)N[C@@H](C2CCCCC2)C(=O)N[C@@H]([C@@H](C)CC)C(=O)O[C@H]1C)[C@@H](C)CC)[C@@H](C)CC | broth microdilution | ATCC 10798, Mueller-Hinton broth | 16 h, 37 °C | > 8 µg/mL
C#CCON=C1C(C)C(c2ccc(C)cc2)OC(c2ccc(C)cc2)C1C (stereo not shown) | microbial growth, broth dilution | MTCC443 | 24 h | 12.5 µg/mL
CC(C)[C@H](NC(=O)[C@H](CCCNC(=N)N)NC(=O)[C@H](CCCNC(=N)N)NC(=O)[C@@H](NC(=O)[C@H](C)NC(=O)[C@H](CC(N)=O)NC(=O)[C@H](CCCNC(=N)N)NC(=O)[C@@H](NC(=O)[C@H](CCCNC(=N)N)NC(=O)[C@H](CCCNC(=N)N)NC(=O)[C@@H](NC(=O)[C@@H](NC(=O)[C@H](CCCNC(=N)N)NC(=O)[C@H](CCCNC(=N)N)NC(=O)[C@H](Cc1c[nH]c2ccccc12)NC(=O)[C@H](Cc1c[nH]c2ccccc12)NC(=O)CN)[C@@H](C)O)C(C)C)C(C)C)C(C)C)C(=O)O | – | ATCC 25922 | 18 h, 37 °C | 16 µg/mL
CC(C)[C@@H]1NC(=O)[C@@H]2CCCN2C(=O)[C@@H](C)NC(=O)[C@H](CO)NC(=O)[C@H](C)NC(=O)[C@H](C(C)(C)C)NC(=O)[C@H](CCO)NC(=O)[C@H](Cc2c[nH]c3ccccc23)NC(=O)[C@H](CCO)NC(=O)[C@@H](CCN)NC(=O)[C@H](CCC(N)=O)NC(=O)[C@H](CCN)NC(=O)[C@H](Cc2ccc(O)cc2)NC(=O)[C@H]([C@@H](C)O)NC1=O | broth microdilution | MCR2, colistin-resistant, mcr plasmid, CAMHB with polysorbate-80 | 16 h, 37 °C, together with: 0.002% polysorbate-80 | > 64 µg/mL
Cc1cc(N)c2cc(NC(=O)c3ccc4c(-c5ccccc5O)cccc4c3)ccc2n1 | – | BW25113 wild type | – | 50 µM
CCCCCCCCCCCCCCCC(=O)N[C@@H](CCCCN)C(=O)N[C@@H](CCCCN)C(=O)N[C@@H](CCCCN)C(=O)N[C@@H](CCCCN)C(=O)N[C@@H](CCCCN)C(N)=O | broth microdilution | K12 | 16-24 h, 37 °C, prepared at pH 7 | 8 µg/mL
CC[C@H](C)[C@H](NC(=O)[C@H](CCN)NC(=O)[C@H](Cc1ccccc1)NC(=O)[C@H](Cc1ccccc1)NC(=O)CCCCCOC(=O)c1cn(C2CC2)c2cc(N3CCNCC3)c(F)cc2c1=O)C(=O)N[C@@H](CCN)C(=O)N[C@H](Cc1ccccc1)C(=O)N[C@@H](CC(C)C)C(=O)N[C@@H](CCN)C(=O)N[C@@H](C(=O)N[C@@H](CC(C)C)C(=O)N[C@@H](CO)C(N)=O)C(C)C | – | – | 24 h, 37 °C | 1.56 µM
C=CCCC[C@@H]1NC(=O)[C@H](CC(C)C)NC(=O)[C@H](C)NC(=O)[C@H](NC(=O)[C@H](CO)NC(=O)[C@@H](CCCCN)NC(=O)[C@@H](CCCC=C)NC(=O)[C@@H](N)Cc2ccccc2)[C@H](C)OC1=O | – | ATCC 10798 | TFA salt | 32 µg/mL
CC[C@H](C)[C@H](N)C1=N[C@H](C(=O)N[C@@H](CC(C)C)C(=O)N[C@H](CCC(=O)O)C(=O)N[C@H](C(=O)N[C@H]2CCCCNC(=O)[C@H](CC(N)=O)NC(=O)[C@@H](CC(=O)O)NC(=O)[C@H](Cc3c[nH]cn3)NC(=O)[C@@H](Cc3ccccc3)NC(=O)[C@H](Cc3ccccc3)NC(=O)[C@@H](CCCN)NC2=O)[C@@H](C)CC)CS1 | broth microdilution | ATCC 25922, LB medium | 18 h, 37 °C, together with: ZnSO4 0.3 mM | > 64 µg/mL
CC(C)C[C@H](NC(=O)[C@H](CC(C)C)NC(=O)[C@H](CCCCN)NC(=O)CNC(=O)[C@H](CC(C)C)NC(=O)[C@H](CC(C)C)NC(=O)[C@H](CO)NC(=O)[C@H](CC(C)C)NC(=O)[C@H](CC(C)C)NC(=O)[C@H](CO)NC(=O)[C@H](CC(C)C)NC(=O)[C@H](CC(C)C)NC(=O)CN)C(N)=O | broth microdilution | K12 | – | > 120 µM
N=C(N)NCCC[C@H](NC(=O)[C@H](Cc1c[nH]c2ccccc12)NC(=O)[C@H](CCC(N)=O)NC(=O)[C@H](Cc1c[nH]c2ccccc12)NC(=O)[C@H](CCCNC(=N)N)NC(=O)[C@H](CCCNC(=N)N)NC(=O)CCCCCNC(=O)/C=C/c1ccc(O)c(O)c1)C(N)=O | broth microdilution | ATCC 25922 | 24 h, 37 °C | 76 µM and 79 µM
CC(C)Oc1ccc(B(O)O)c(F)n1 | bacterial growth | TEM-3 ESBL clinical isolate | cefotaxime alone | 4 µg/mL
CC[C@H](C)[C@H](NC(=O)[C@H](C)NC(=O)[C@@H](NC(=O)[C@H](CC(=O)O)NC(=O)[C@H](CCCCN)NC(=O)[C@H](CO)NC(=O)[C@@H](NC(=O)[C@H](CC(N)=O)NC(=O)[C@H](C)NC(=O)[C@@H](NC(=O)[C@H](CCC(=O)O)NC(=O)[C@H](CCCCN)NC(=O)[C@@H](NC(=O)[C@@H](NC(=O)[C@H](Cc1c[nH]cn1)NC(=O)[C@H](CCCCN)NC(=O)[C@@H](NC(=O)[C@H](CCCCN)NC(=O)[C@H](CCCCN)NC(=O)[C@@H](NC(=O)[C@H](CC(C)C)NC(=O)[C@H](CCCCN)NC(=O)[C@H](CC(N)=O)NC(=O)[C@H](Cc1ccccc1)NC(=O)[C@H](CCCNC(=N)N)NC(=O)[C@H](CCCCN)NC(=O)[C@H](CCCNC(=N)N)NC(=O)[C@H](Cc1ccccc1)NC(=O)CN)C(C)C)C(C)C)[C@@H](C)O)[C@@H](C)CC)[C@@H](C)O)C(C)C)C(C)C)C(=O)N[C@H](C(=O)N[C@@H](C)C(=O)NCC(=O)N[C@@H](CO)C(=O)NCC(=O)N[C@H](C(=O)N[C@@H](C)C(=O)N[C@H](C(=O)NCC(=O)N[C@@H](C)C(=O)N[C@@H](C)C(=O)N[C@@H](CCSC)C(N)=O)C(C)C)C(C)C)C(C)C | broth microdilution | ATCC 25922, CAMHB | – | 4 µg/mL

A few entries again:
Compound | test | test system | conditions | MIC
CC[C@H](C)[C@H](NC(=O)[C@H](CCN)NC(=O)[C@H](Cc1ccccc1)NC(=O)[C@H](Cc1ccccc1)NC(=O)CCCCCOC(=O)c1cn(C2CC2)c2cc(N3CCNCC3)c(F)cc2c1=O)C(=O)N[C@@H](CCN)C(=O)N[C@H](Cc1ccccc1)C(=O)N[C@@H](CC(C)C)C(=O)N[C@@H](CCN)C(=O)N[C@@H](C(=O)N[C@@H](CC(C)C)C(=O)N[C@@H](CO)C(N)=O)C(C)C | – | – | 24 h, 37 °C | 1.56 µM
C=CCCC[C@@H]1NC(=O)[C@H](CC(C)C)NC(=O)[C@H](C)NC(=O)[C@H](NC(=O)[C@H](CO)NC(=O)[C@@H](CCCCN)NC(=O)[C@@H](CCCC=C)NC(=O)[C@@H](N)Cc2ccccc2)[C@H](C)OC1=O | – | ATCC 10798 | TFA salt | 32 µg/mL
CC[C@H](C)[C@H](N)C1=N[C@H](C(=O)N[C@@H](CC(C)C)C(=O)N[C@H](CCC(=O)O)C(=O)N[C@H](C(=O)N[C@H]2CCCCNC(=O)[C@H](CC(N)=O)NC(=O)[C@@H](CC(=O)O)NC(=O)[C@H](Cc3c[nH]cn3)NC(=O)[C@@H](Cc3ccccc3)NC(=O)[C@H](Cc3ccccc3)NC(=O)[C@@H](CCCN)NC2=O)[C@@H](C)CC)CS1 | broth microdilution | ATCC 25922, LB medium | 18 h, 37 °C, together with: ZnSO4 0.3 mM | > 64 µg/mL
